Results collected from several papers.
Lines come from different studies, so protocols differ. “And” joins repeats or separate records; there may be more than shown. ± gives the spread as reported.

With `Cc1cc(O)cc(C)c1C[C@H](N)C(=O)N[C@H](CCCNC(=N)N)C(=O)N[C@@H](Cc1ccccc1)C(=O)N[C@@H](CCCCN)C(=O)NCCCCCCCCCCCCNC(=O)[C@H](Cc1ccccc1)NC(=O)[C@H](CC1CCCCC1)NC[C@@H]1Cc2ccccc2CN1C(=O)[C@@H](N)Cc1ccc(O)cc1` the Ke was 1800 ± 90 nM (delta opioid receptor (mouse); antagonist; mouse vas deferens; together with: DPDPE).
For `CC(C)C[C@H](NC(=O)[C@H](CC(=O)O)NC(=O)[C@@H](NC(=O)[C@H](CCC(=O)O)NC(=O)[C@H](CCCCN)NC(=O)[C@H](Cc1ccc(O)cc1)NC(=O)[C@H](CCCCN)NC(=O)[C@H](Cc1c[nH]cn1)NC(=O)CNC(=O)CN)[C@@H](C)O)C(N)=O`, “initial cleavage rate” read 4.3 ± 0.5 %/min (HCV IRES RNA; MALDI-TOF mass spectrometry, measured: 2',3'-cyclic phosphate products; hepatitis C virus).
For `C#CCNC(=O)CN(Cc1ccc(-c2ccc(F)c(CN3CCS(=O)(=O)CC3)n2)cc1)C(=O)c1ccc(C2(C(F)(F)F)N=N2)cc1`, the photoaffinity enrichment was over 13 fold (glutathione S-transferase Mu 6; chemical proteomics; CHO cells overexpressing CB2; 10 µM; reference: untreated).
`O=C(O)c1ccc(-c2nc(-c3ccccc3Cl)c3sccn23)cc1`: “lowest significant inhibitory concentration” at least 20 µM (BLVRB human; enzyme activity, inhibitor; K562 intact cells; 24 h).
For `Cc1ccc2c(n1)c(-c1cccc(S(C)(=O)=O)c1)c(C)n2C/C(F)=C/CN`, the inhibition was 6% (GABAA receptor (rat); binding, radioligand binding; rat tissue; 10 µM, Chloride).
`Cc1cc(O)cc(C)c1C[C@H](N)C(=O)N[C@H](CCCNC(=N)N)C(=O)N[C@@H](Cc1ccccc1)C(=O)N[C@@H](CCCCN)C(=O)NCCCCCCCCNC(=O)[C@H](Cc1ccccc1)NC(=O)[C@H](CC1CCCCC1)NC[C@@H]1Cc2ccccc2CN1C(=O)[C@@H](N)Cc1ccc(O)cc1` has a Ke of 15.6 ± 3.8 nM (delta opioid receptor (mouse); antagonist; mouse vas deferens; together with: DPDPE).
The IC50 of `CNC(=O)C[C@H](Cc1ccc(F)cc1)NC(=O)[C@@H](Cc1ccc(Cl)cc1Cl)NC(=O)[C@H](N)Cc1ccccc1C#N` is reported as over 10 µM (human protease panel; enzyme activity, inhibitor; off-target).
For `COc1ccccc1-c1n[nH]c2nc(N[C@H]3CC[C@H](NS(=O)(=O)CC(C)C)CC3)ncc12`, the relative abundance was 0.36 (Leishmania donovani histone H1-like (LINJ.27.1511); bead binding competition; Leishmania donovani extract; 10 µM; reference: vehicle).
`CC[C@H](C)[C@H](NC(=O)[C@H](CC(C)C)NC(=O)[C@H](CC(C)C)NC(=O)[C@H](CC(=O)O)NC(=O)[C@@H](NC(=O)[C@H](CCC(=O)O)NC(=O)[C@H](CCCCN)NC(=O)[C@H](Cc1ccc(O)cc1)NC(=O)[C@H](CCCCN)NC(=O)[C@H](Cc1c[nH]cn1)NC(=O)CNC(=O)CN)[C@@H](C)O)C(=O)N[C@@H](CC(C)C)C(=O)N[C@@H](Cc1ccccc1)C(=O)N[C@@H](CCCCN)C(=O)N[C@@H](CC(=O)O)C(=O)N[C@@H](CC(=O)O)C(=O)N[C@@H](Cc1ccc(O)cc1)C(=O)N[C@@H](Cc1ccccc1)C(=O)N[C@@H](C)C(=O)N[C@@H](CCCCN)C(=O)N[C@@H](CCCCN)C(=O)N[C@@H](CC(N)=O)C(=O)N[C@@H](CCC(=O)O)C(=O)N[C@@H](CCC(=O)O)C(=O)N[C@@H](CCCNC(=N)N)C(=O)N[C@@H](CCCCN)C(N)=O` gave an initial rate of 349 ± 93 nM/min (HCV IRES RNA; RNA cleavage, gel electrophoresis; hepatitis C virus; 10 µM, together with: co-reagents 1 mM, fluorescein-labelled HCV RNA 10 µM).
`COc1ccccc1-c1n[nH]c2nc(NC3CCN(C(=O)Cc4ccc(F)cc4F)CC3)ncc12` has a relative abundance of 0.7 (Leishmania donovani CYC6 (LINJ.32.3520); bead binding competition; Leishmania donovani extract; 10 µM; reference: vehicle).
The IC50 of `O=C(Oc1cccc2c1C(=O)C=CC2=O)c1ccccc1` is reported as over 50 µM (mouse brain serine hydrolases; competitive ABPP; non-selective labelling block, together with: FP-rhodamine).
`O=C(CN1CN(c2ccccc2)C2(CCN(C(=O)c3cnc4[nH]ncc4c3)CC2)C1=O)NCC(F)(F)F` has an inhibition of under 50% (FLT3-ITD; concentration not given).
With `O=C(O)COc1c2c(c(OCC(=O)O)c3c1C1CC3c3cc4c(cc31)C1CC4c3ccccc31)C1CC2c2cc3c(cc21)C1CC3c2ccccc21` the association constant was 27 ± 4 M⁻¹ (DOPC; 1H NMR titration; methanol-d4; CH2-N(Me)3 signal).
For `CC[C@@H]1CN2CCc3c([nH]c4cccc(OC)c34)[C@@H]2C[C@@H]1/C(=C\OC)C(=O)OC`, the IC50 was 0.09 µg/mL and 0.1 µg/mL (rabbit anti-mitragynine polyclonal IgG; antigen binding, competitor, competitive indirect ELISA; 15% methanol; 90 min antibody-standard, 60 min antibody-antigen incubation).
`Cn1ccc2cc(-n3c(=O)[nH]c4sc5c(c4c3=O)CCCC5)ccc21` has an inhibition of 46% (GABAA receptor rat; binding, radioligand binding; 10 µM, central, together with: flunitrazepam).
For `Nc1ncc(-c2cc(-c3cnn(CC(F)(F)F)c3)ncc2F)nc1C(=O)NC1CNCC(F)C1` (centres unmarked), the remaining binding was 100% (EGFR L858R T790M; KINOMEscan; 1 µM).
`CC[C@H](C)[C@@H]1NC(=O)CNC(=O)[C@H](CC(=O)O)NC(=O)[C@H](CC(=O)O)NC(=O)[C@@H]2CSSC[C@@H]3NC(=O)[C@H](Cc4c[nH]cn4)NC(=O)[C@H](CCCNC(=N)N)NC(=O)[C@H](CCCNC(=N)N)NC(=O)[C@@H](NC(=O)[C@H](CO)NC(=O)[C@@H](N)Cc4c[nH]cn4)CSSC[C@H](NC(=O)[C@H](C)NC(=O)[C@H](Cc4c[nH]c5ccccc45)NC(=O)CNC(=O)[C@H](CSSC[C@@H](C(=O)N[C@@H](CCCCN)C(=O)N4CCC[C@H]4C(=O)N[C@@H](CC(C)C)C(=O)N[C@@H](CCCNC(=N)N)C(=O)N[C@H](C(=O)O)C(C)C)NC1=O)NC(=O)[C@H](CCCNC(=N)N)NC(=O)[C@H](CCCNC(=N)N)NC(=O)[C@H](CC(N)=O)NC(=O)[C@H](CCC(=O)O)NC(=O)[C@H](Cc1c[nH]cn1)NC3=O)C(=O)N[C@@H](Cc1ccc(O)cc1)C(=O)N2` — result for ion current: “no effect” (hKv1.7 human; concentration not given).

Repeated from above:
For `C#CCNC(=O)CN(Cc1ccc(-c2ccc(F)c(CN3CCS(=O)(=O)CC3)n2)cc1)C(=O)c1ccc(C2(C(F)(F)F)N=N2)cc1`, the photoaffinity enrichment was over 13 fold (glutathione S-transferase Mu 6; chemical proteomics; CHO cells overexpressing CB2; 10 µM; reference: untreated).
`O=C(O)c1ccc(-c2nc(-c3ccccc3Cl)c3sccn23)cc1`: “lowest significant inhibitory concentration” at least 20 µM (BLVRB human; enzyme activity, inhibitor; K562 intact cells; 24 h).
For `Cc1ccc2c(n1)c(-c1cccc(S(C)(=O)=O)c1)c(C)n2C/C(F)=C/CN`, the inhibition was 6% (GABAA receptor (rat); binding, radioligand binding; rat tissue; 10 µM, Chloride).
